# Measurements gathered from unrelated publications.
# Compare with care: the assays were run in different laboratories.
# Target: Melatonin receptor type 1A (MTNR1A, Homo sapiens, UniProt P48039)
# UniProt P48039, sequence (whole entry, looked up): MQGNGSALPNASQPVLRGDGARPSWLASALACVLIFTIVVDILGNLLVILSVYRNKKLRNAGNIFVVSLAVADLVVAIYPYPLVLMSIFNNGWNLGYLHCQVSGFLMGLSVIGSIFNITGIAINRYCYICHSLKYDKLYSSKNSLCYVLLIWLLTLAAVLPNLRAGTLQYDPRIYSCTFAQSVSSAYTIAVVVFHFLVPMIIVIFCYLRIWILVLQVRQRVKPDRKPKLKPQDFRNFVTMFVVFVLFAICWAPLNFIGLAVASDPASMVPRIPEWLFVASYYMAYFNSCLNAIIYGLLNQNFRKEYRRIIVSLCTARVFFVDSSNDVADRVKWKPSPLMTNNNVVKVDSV
Structure (SMILES),assay,system,conditions,quantity,result
CC(=O)c1cnc(N)nc1N1CC[C@H]1c1nn2ccc(Cl)c2c(=O)n1-c1ccccc1,"ligand displacement, radioligand",,10 µM,inhibition,18%
O=C1c2sc(-c3ccc(N4CCC(F)C4)nc3F)nc2CCN1c1cccnc1 (centres unmarked),"ligand displacement, radioligand",,1 µM,inhibition,-2%
Cn1ccc2cc(-n3c(=O)[nH]c4sc5c(c4c3=O)CCCC5)ccc21,"ligand displacement, radioligand",,10 µM,inhibition,-9%
COc1ccc2[nH]c(-c3cccc4ccccc34)c(CCNC(=O)CI)c2n1,"cAMP, agonist, TR-FRET",CHO-K1,20 min,Emax,84%
COCC(=O)N1CCc2cc(-c3csc(NC(=O)c4cc(OC)cc(OC)c4)n3)ccc21,cell-free assay,,10 µM,inhibition,-3%
COc1cc2c(CCNC(C)=O)c[nH]c2cc1Cl,"β-arrestin recruitment, agonist",CHO-K1,90 min,Emax,97%
CO[C@@H](C)c1c(NC(=O)Nc2cnc(-n3nccn3)c(C(F)(F)F)c2)cnc2sc(C)nc12,"ligand displacement, radioligand",,10 µM,inhibition,7.5%
Cc1[nH]nc2c1N=C(c1ccccc1Cl)c1cnc(N3CCOCC3)cc1N2,ligand displacement,,10 µM,inhibition,43%
